Measured values collected from several papers.
Each line is one published result; not all experiments were run side by side. Numbers after ± are the reported error.
IDE: Insulin-degrading enzyme (IDE, Homo sapiens, UniProt P14735)
PTK6: Protein-tyrosine kinase 6 (PTK6, Homo sapiens, UniProt Q13882)
Chain of UniProt Q13882 (whole entry, looked up): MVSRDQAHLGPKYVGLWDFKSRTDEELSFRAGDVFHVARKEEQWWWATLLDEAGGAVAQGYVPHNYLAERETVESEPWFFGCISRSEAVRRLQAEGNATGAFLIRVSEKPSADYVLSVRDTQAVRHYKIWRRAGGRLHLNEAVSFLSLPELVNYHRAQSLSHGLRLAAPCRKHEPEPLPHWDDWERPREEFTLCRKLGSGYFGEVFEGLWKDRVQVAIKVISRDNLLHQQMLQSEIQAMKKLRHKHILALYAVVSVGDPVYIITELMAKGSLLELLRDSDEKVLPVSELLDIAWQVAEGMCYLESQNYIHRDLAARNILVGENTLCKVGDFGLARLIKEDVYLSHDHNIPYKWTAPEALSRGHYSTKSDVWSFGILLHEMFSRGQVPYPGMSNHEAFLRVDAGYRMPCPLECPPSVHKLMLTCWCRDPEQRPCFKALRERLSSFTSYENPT
HIPK1: Homeodomain-interacting protein kinase 1 (HIPK1, Homo sapiens, UniProt Q86Z02)
Chain of UniProt Q86Z02 (whole entry, looked up): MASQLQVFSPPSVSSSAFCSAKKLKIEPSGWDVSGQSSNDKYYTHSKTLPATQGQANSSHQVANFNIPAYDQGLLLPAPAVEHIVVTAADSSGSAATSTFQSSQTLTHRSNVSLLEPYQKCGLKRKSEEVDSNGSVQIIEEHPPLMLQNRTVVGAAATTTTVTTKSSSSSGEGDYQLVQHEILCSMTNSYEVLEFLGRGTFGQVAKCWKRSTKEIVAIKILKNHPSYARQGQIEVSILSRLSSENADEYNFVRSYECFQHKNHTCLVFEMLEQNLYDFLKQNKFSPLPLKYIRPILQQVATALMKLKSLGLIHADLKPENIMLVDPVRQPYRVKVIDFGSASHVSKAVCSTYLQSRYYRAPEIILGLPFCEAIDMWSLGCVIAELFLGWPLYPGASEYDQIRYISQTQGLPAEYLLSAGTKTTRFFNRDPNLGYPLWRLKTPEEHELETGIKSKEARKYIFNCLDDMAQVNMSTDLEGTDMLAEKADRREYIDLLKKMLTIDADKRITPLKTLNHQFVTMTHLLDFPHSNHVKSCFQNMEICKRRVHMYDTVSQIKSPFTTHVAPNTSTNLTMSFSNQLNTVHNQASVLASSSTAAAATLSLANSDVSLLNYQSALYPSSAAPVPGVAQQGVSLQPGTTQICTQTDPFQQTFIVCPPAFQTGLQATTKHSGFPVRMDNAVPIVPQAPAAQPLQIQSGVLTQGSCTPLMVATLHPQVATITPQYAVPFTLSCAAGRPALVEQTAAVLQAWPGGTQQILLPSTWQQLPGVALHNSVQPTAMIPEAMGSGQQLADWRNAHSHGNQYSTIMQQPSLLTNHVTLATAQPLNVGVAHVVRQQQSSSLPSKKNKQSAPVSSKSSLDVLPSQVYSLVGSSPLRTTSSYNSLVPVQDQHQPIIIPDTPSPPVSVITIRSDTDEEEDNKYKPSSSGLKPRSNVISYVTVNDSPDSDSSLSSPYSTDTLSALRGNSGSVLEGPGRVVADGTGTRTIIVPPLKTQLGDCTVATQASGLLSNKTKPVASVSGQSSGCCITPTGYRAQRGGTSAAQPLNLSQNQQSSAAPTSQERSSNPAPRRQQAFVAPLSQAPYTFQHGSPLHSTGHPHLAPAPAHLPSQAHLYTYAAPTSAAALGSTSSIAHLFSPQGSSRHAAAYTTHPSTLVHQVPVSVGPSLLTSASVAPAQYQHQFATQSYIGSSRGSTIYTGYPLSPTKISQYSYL
RPS6KB1: Ribosomal protein S6 kinase beta-1 (RPS6KB1, Homo sapiens, UniProt P23443)
Chain of UniProt P23443 (whole entry, looked up): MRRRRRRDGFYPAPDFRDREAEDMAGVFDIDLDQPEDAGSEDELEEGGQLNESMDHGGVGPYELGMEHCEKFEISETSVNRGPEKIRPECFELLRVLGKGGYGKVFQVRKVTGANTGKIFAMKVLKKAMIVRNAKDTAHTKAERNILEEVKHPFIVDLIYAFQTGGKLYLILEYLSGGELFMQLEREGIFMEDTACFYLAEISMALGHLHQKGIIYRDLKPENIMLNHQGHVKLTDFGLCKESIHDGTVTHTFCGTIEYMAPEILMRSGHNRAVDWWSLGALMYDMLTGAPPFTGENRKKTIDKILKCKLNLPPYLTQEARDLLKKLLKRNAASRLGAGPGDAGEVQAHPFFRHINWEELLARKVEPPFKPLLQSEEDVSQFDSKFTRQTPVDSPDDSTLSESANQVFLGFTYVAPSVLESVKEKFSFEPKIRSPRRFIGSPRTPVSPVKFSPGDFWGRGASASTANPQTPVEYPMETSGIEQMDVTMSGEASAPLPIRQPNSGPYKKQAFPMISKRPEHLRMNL
PIK3C2G: Phosphatidylinositol 3-kinase C2 domain-containing subunit gamma (PIK3C2G, Homo sapiens, UniProt O75747)
Chain of UniProt O75747 (whole entry, looked up): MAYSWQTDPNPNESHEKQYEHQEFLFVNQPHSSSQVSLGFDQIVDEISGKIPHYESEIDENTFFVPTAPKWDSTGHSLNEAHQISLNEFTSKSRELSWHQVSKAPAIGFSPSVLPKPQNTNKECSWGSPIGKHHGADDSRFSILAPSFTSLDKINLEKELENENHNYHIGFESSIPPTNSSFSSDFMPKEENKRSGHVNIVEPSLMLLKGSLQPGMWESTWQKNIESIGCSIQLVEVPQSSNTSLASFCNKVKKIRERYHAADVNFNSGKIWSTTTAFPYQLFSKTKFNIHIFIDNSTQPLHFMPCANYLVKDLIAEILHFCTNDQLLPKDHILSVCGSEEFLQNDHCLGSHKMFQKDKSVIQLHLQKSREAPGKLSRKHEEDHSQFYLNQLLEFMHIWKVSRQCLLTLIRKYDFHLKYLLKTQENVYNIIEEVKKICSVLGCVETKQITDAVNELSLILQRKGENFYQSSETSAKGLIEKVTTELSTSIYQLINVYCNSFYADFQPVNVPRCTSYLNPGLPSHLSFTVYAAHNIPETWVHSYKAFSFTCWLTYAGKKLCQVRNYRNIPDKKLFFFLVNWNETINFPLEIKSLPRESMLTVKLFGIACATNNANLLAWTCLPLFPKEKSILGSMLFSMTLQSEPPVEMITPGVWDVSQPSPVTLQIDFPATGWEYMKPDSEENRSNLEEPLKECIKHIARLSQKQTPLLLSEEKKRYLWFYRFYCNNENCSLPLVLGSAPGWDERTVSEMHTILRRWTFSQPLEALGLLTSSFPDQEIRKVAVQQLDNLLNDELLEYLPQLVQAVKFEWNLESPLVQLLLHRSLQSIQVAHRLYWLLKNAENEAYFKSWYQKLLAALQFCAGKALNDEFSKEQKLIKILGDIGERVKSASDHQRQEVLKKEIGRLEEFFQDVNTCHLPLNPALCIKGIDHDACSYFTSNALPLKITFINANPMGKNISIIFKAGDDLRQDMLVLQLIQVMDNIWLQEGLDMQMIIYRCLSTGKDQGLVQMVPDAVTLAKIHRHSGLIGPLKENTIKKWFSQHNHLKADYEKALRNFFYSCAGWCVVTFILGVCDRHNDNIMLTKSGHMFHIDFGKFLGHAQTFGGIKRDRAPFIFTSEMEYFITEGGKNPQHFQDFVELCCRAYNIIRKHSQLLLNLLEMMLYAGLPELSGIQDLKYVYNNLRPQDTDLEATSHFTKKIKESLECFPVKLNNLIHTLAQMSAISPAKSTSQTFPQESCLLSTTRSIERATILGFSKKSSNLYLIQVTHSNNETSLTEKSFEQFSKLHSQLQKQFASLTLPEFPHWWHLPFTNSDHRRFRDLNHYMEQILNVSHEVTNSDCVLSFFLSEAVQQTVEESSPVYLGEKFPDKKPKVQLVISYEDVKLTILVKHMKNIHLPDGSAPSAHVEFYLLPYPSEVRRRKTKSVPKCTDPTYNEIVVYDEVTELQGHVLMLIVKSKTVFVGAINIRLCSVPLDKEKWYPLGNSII
Chain of UniProt P20618 (whole entry, looked up): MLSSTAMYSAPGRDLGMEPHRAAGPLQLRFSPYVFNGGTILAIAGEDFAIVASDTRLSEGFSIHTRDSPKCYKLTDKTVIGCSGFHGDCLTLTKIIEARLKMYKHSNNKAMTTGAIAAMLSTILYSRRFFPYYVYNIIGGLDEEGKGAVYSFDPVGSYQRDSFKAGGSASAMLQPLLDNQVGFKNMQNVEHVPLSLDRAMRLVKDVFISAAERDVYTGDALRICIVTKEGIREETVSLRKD
Chain of UniProt P45983 (whole entry, looked up): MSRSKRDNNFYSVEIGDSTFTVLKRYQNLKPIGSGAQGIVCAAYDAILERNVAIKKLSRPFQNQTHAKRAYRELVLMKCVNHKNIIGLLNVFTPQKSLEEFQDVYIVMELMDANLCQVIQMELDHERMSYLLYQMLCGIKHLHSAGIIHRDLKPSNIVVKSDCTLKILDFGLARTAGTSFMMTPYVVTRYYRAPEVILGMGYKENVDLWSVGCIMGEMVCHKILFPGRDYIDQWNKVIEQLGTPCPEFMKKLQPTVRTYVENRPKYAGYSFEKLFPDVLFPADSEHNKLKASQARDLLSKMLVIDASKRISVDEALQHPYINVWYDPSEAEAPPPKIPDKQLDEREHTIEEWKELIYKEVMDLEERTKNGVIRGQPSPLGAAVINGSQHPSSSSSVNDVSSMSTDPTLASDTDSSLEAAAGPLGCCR
Chain of UniProt P48730 (whole entry, looked up): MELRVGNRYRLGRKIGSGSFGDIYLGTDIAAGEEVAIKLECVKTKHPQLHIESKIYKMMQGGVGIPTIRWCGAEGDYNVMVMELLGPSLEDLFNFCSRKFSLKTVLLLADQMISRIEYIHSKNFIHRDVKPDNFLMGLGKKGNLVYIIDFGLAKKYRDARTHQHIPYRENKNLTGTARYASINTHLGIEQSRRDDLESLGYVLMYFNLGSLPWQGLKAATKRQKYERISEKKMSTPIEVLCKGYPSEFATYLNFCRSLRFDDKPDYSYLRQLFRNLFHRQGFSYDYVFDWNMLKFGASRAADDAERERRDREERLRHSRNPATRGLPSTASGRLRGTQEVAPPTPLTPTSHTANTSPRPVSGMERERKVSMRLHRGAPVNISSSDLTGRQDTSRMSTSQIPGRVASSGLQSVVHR
Chain of UniProt P28074 (whole entry, looked up): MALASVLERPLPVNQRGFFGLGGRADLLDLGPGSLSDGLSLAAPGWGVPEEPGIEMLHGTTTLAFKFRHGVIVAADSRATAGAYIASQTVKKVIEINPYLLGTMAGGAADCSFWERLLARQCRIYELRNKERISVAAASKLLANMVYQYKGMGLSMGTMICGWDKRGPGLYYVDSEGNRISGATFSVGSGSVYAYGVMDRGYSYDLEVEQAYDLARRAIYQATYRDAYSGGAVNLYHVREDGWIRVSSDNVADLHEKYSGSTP

c1cnc2ccc(Nc3nc(NC4CC4)c4nc[nH]c4n3)cc2c1
remaining activity (AXL (Homo sapiens, UniProt P30530); kinase activity, inhibitor, SelectScreen kinase profiling; 1 µM; relative to: control): 79%

OCCS
remaining activity (Alpha-L-fucosidase AlfA (Lacticaseibacillus rhamnosus, UniProt A0A809N3R1); inhibitor; 1000 µM, 5 min; relative to: untreated): 76.8 ± 0.2%

CO[C@@H]1CN(C)C(=O)c2cc(NC(=O)c3ccc(Oc4ccccc4)cc3)ccc2OC[C@@H](C)NC[C@H]1C
EC50 (IDE; enzyme activity, inhibitor, fluorogenic kinetic; with: Mca-RPPGFSAFK(Dnp)-OH substrate): 2.5 µM

COc1cc(Nc2ncc3c(n2)-c2ccc(Cl)cc2C(c2c(F)cccc2OC)=NC3)ccc1C(=O)O
remaining activity (PAK6; kinase activity; 1 µM): 100%

C=CC(=O)N1CCC([C@@H]2CCNc3c(C(N)=O)c(-c4ccc(Oc5ccccc5)cc4)nn32)CC1
remaining activity (PTK6; kinase activity, inhibitor, HotSpot radiometric; 100 nM, with: ATP 10 µM): 40.6 ± 2.1%

Cc1cc(Nc2cc(N3CCN(C)CC3)nc(Sc3ccc(NC(=O)C4CC4)cc3)n2)[nH]n1
remaining activity (HIPK1; kinase activity, KinaseProfiler; 0.03 µM, species human; relative to: control): 94%

Nc1ncnc2c1ncn2C1OC(CSCCNCc2cccc(-c3ccccc3)c2)C(O)C1O (centres unmarked)
remaining activity (DNA methyltransferase CcrM (ccrMIM, Caulobacter vibrioides, UniProt P0CAW2); 10 µM): 53.2%

O=C(NC1CCC1)c1ccc2nc(-c3cccc(NS(=O)(=O)NCCN4CCCCC4)c3)cn2c1
remaining activity (MYLK3 (Homo sapiens, UniProt Q32MK0); enzyme activity; 10 µM): 100%

Cn1cc(-c2ccc(-c3cncc(Cl)c3N3CCC4(CCNC4=O)CC3)cc2)cn1
log2 fold change (COLO 205; gene expression, microarray, measured: SPIB mRNA; concentration not given, 6 h; relative to: untreated cells): -3.55

COc1cc(Nc2cnc(C#N)c(O[C@H](C)CN(C)C)n2)ncc1-c1cnn(C)c1
remaining activity (human phosphorylase kinase; radiometric; 1 µM): 86%

O=C1NC(=O)/C(=C/c2ccc(-c3ccc(F)cc3O)o2)S1
remaining activity (RPS6KB1; enzyme activity; 10 µM): 43%

C=CC(=O)N1CCC[C@@H](n2nc(-c3ccc(Oc4ccccc4)cc3)c3c(N)ncnc32)C1
remaining activity (RET (Homo sapiens, UniProt P07949); kinase activity, inhibitor, HotSpot radiometric; 100 nM, with: ATP 10 µM): 66.9 ± 1.5%

CNc1ncc2c(/C=C/C(=O)N3CCC(OC)CC3)nn(Cc3cccc(C(F)(F)F)c3)c2n1
remaining activity (RPS6KB1; kinase activity, inhibitor; 1 µM; relative to: untreated control): 97%

O=C(O)CCNc1cc(N2CCc3ccccc3CC2)nc(-c2cccnc2)n1
viability (HBL-1; 0.5 µM, 120 h): 111%

NC/C(=C\F)COc1cccc(Cn2c(=S)[nH]c(=O)c3[nH]cnc32)c1
remaining activity (Peroxidasin homolog (PXDN, Homo sapiens, UniProt Q92626); Amplex UltraRed; 20 µM; relative to: control): 21.5%

O=C(O)c1ccc(Nc2ncc3c(n2)-c2ccc(Cl)cc2C(c2c(F)cccc2F)=NC3)cc1
remaining activity (FGFR1(h); kinase activity; 1 µM): 43%

COc1cc(-c2cncc3c2CN(C)Cc2cc(N4CCNCC4)ccc2-3)cc(OC)c1OC
remaining activity (PIK3C2G; kinase activity; 1 µM, human enzyme, with: ATP 10 µM; relative to: DMSO control): 102%

O=C(Nc1ccc2c(O)cc(S(=O)(=O)O)cc2c1)Nc1ccc2c(O)cc(S(=O)(=O)O)cc2c1
viability (HBL-1; 0.5 µM, 120 h): 122%

COc1ccc(C(=O)CSc2nc3ccc([N+](=O)[O-])cc3s2)cc1
remaining activity (Threonine--tRNA ligase (thrS, Staphylococcus aureus, UniProt Q2FXP7); aminoacylation; 100 µM): 11.5%

Cc1ccccc1-c1ccc([C@H]2[C@H](CO)N3C(=O)CN(C(=O)c4cccnc4)C[C@@H]23)cc1
EC50 (IDE; enzyme activity, inhibitor, fluorogenic kinetic; with: Mca-RPPGFSAFK(Dnp)-OH substrate): 6.1 µM

CC(=O)Nc1cccc(-n2c(=O)n(C3CC3)c(=O)c3c(Nc4ccc(I)cc4F)n(C)c(=O)c(C)c32)c1
viability (NCI-H2087 (BRAF L597V); 1.56 nM, 72 h, unit not given; relative to: DMSO): 0.881

CC(C)C[C@H](NC(=O)C[C@H](O)[C@H](CC(C)C)NC(=O)[C@H](Cc1c[nH]cn1)NC(=O)CNC(=O)[C@@H](NC(=O)[C@H](C)NC(=O)[C@H](Cc1c[nH]c2ccccc12)NC(=O)[C@H](CCC(N)=O)NC(=O)[C@@H](Cc1ccccc1)NC(=O)COCCOCCNC(=O)CCC(C(=O)O)N1CCN(CC(=O)O)CCN(CC(=O)O)CCN(CC(=O)O)CC1)C(C)C)C(N)=O (some centres unmarked) [lutetium-177 labelled]
tissue uptake (BALB/c nu/nu mice, PC-3 xenograft tumour; 250 pmol, 1 h, with: PA 300 µg): 13 ± 1.3 %ID/g

COc1cc(F)ccc1-c1ncnc(Nc2cccc(C[S@](C)(=N)=O)c2)n1
remaining activity (PIK3C2G; kinase activity; 10 µM, with: 10 µM ATP): 101%

C[C@H]1[C@H](OC(=O)CCC(=O)O)O[C@@H]2O[C@@]3(C)CC[C@H]4[C@H](C)CC[C@@H]1[C@@]24OO3
remaining activity (Non-structural polyprotein pORF1, helicase domain (Hepatitis E virus genotype 1, UniProt P33424); ATPase activity; 4.8 µM; relative to: solvent control): 76.5%

C=CC(=O)N1CCC[C@@H](n2nc(-c3ccc(Oc4ccccc4)cc3)c3c(N)ncnc32)C1
remaining activity (Ephrin type-A receptor 10 (EPHA10, Homo sapiens, UniProt Q5JZY3); 10 µM): 289%

CC(C)C[C@H](NC(=O)[C@H](Cc1ccccc1)NC(=O)c1cnccn1)B(O)O
remaining activity (Proteasome component C5/PSMB5 (Homo sapiens, UniProt P20618+P28074); enzyme activity, inhibitor; 1 µM, PA28αβ-activated, HEPES buffer, with: Ac-WLA-AMC substrate): 0%

C[C@@H](Oc1ccc(S(C)(=O)=O)cc1C(=O)N1C[C@@H]2C[C@]2(c2cc(C(F)(F)F)on2)C1)C(F)(F)F
remaining activity (SLC6A9 (Homo sapiens, UniProt P48067, L476T); glycine uptake, inhibitor, [3H]glycine uptake; 0.005 µM, L422T mutant, log concentration 5, with: [3H]glycine; relative to: no inhibitor): 10.2%

C=CC[C@@H]1c2ccc(OC)c(OC)c2CN2CCc3cc4c(cc3[C@H]12)OCO4
remaining activity (P2X purinoceptor 7 (P2rx7, Rattus norvegicus, UniProt Q64663); ATP-evoked current, inhibitor, whole-cell patch clamp; HEK293 transfected; 30 µM): 92.5%

Oc1cccc(-c2nc(N3CCOCC3)c3oc4ncccc4c3n2)c1
remaining activity (CSNK1D (Homo sapiens, UniProt P48730); enzyme activity; 10 µM): 100%

Nc1ncc2c(n1)-c1c([nH]c3ccc(-c4ccc(F)cc4)cc13)CCC2
remaining activity (HIPK1; kinase activity, inhibitor, radiometric; 1 µM, with: ATP at Km): 73%

Cc1cc(NC(=O)c2cccc(NC(=O)/C=C/CN(C)C)c2)ccc1Nc1nccc(-c2cccnc2)n1
remaining activity (MAPK8 (Homo sapiens, UniProt P45983); enzyme activity, inhibitor; 4.938 µM, 18 h, unit not given, with: GSH 10 mM pre-incubation; relative to: vehicle): 0.531

CC#CC(=O)N1CCC[C@H]1c1nc(-c2ccc(C(=O)Nc3ccccn3)cc2)c2c(N)nccn12
remaining activity (PTK6; kinase activity, inhibitor, HotSpot radiometric; 100 nM, with: ATP 10 µM): 80.8 ± 1.1%

COc1cc(N2CCN(C)CC2)ccc1Nc1nc(N)n(C(=S)NCc2c(Cl)cccc2Cl)n1
remaining activity (HIPK1; enzyme activity; 10 µM; relative to: control): 2.2%

COc1ccc(F)cc1C(=O)NCc1ccc(-c2nn([C@@H](C)C(F)(F)F)c(N)c2C(N)=O)cc1
remaining activity (TXK (Homo sapiens, UniProt P42681); kinase activity, inhibitor, HotSpot radiometric; 100 nM, with: ATP 10 µM): 68.4 ± 0.4%

COc1cc(N2CCN(C)CC2)ccc1Nc1nc(N)n(C(=O)NCc2c(Cl)cccc2Cl)n1
remaining activity (MAP3K1 (Homo sapiens, UniProt Q13233); enzyme activity; 10 µM; relative to: control): 12%

Excerpt of the above:
CC(=O)Nc1cccc(-n2c(=O)n(C3CC3)c(=O)c3c(Nc4ccc(I)cc4F)n(C)c(=O)c(C)c32)c1
viability (NCI-H2087 (BRAF L597V); 1.56 nM, 72 h, unit not given; relative to: DMSO): 0.881

Nc1ncc2c(n1)-c1c([nH]c3ccc(-c4ccc(F)cc4)cc13)CCC2
remaining activity (HIPK1; kinase activity, inhibitor, radiometric; 1 µM, with: ATP at Km): 73%

CC(C)C[C@H](NC(=O)[C@H](Cc1ccccc1)NC(=O)c1cnccn1)B(O)O
remaining activity (Proteasome component C5/PSMB5 (Homo sapiens, UniProt P20618+P28074); enzyme activity, inhibitor; 1 µM, PA28αβ-activated, HEPES buffer, with: Ac-WLA-AMC substrate): 0%

Cc1cc(NC(=O)c2cccc(NC(=O)/C=C/CN(C)C)c2)ccc1Nc1nccc(-c2cccnc2)n1
remaining activity (MAPK8 (Homo sapiens, UniProt P45983); enzyme activity, inhibitor; 4.938 µM, 18 h, unit not given, with: GSH 10 mM pre-incubation; relative to: vehicle): 0.531
